Experimental data pooled from the literature.
Numbered parts are unrelated; each lists some results of a single study.
UniProt P28335, sequence (whole entry, looked up): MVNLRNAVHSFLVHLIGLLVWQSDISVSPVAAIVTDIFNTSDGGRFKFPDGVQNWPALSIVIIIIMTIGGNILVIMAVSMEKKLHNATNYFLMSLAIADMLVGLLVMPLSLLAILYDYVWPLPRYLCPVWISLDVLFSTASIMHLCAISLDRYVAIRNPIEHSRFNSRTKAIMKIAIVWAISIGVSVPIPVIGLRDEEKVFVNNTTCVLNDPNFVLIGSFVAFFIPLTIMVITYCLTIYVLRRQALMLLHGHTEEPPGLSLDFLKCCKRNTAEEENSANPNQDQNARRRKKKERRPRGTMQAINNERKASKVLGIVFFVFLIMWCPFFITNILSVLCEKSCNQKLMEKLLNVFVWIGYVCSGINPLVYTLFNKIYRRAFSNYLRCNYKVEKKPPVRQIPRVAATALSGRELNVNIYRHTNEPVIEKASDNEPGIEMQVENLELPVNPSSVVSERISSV
UniProt Q01959, sequence (whole entry, looked up): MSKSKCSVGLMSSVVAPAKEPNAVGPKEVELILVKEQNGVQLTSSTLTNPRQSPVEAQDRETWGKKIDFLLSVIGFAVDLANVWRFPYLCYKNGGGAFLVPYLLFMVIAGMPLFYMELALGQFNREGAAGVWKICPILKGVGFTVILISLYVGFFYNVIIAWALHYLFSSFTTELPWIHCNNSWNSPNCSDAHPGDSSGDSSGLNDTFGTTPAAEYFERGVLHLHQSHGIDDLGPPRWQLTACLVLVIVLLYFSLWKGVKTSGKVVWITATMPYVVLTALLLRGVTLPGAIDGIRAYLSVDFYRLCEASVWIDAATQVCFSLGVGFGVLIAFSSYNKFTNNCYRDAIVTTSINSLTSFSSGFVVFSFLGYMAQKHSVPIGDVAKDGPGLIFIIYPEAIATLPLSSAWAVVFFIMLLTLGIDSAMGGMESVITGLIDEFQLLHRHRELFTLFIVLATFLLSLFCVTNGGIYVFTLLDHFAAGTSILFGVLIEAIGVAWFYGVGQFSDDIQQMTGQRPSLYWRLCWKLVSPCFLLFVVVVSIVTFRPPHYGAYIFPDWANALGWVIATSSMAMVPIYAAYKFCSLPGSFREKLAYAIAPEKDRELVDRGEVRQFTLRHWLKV
UniProt P48147, sequence (whole entry, looked up): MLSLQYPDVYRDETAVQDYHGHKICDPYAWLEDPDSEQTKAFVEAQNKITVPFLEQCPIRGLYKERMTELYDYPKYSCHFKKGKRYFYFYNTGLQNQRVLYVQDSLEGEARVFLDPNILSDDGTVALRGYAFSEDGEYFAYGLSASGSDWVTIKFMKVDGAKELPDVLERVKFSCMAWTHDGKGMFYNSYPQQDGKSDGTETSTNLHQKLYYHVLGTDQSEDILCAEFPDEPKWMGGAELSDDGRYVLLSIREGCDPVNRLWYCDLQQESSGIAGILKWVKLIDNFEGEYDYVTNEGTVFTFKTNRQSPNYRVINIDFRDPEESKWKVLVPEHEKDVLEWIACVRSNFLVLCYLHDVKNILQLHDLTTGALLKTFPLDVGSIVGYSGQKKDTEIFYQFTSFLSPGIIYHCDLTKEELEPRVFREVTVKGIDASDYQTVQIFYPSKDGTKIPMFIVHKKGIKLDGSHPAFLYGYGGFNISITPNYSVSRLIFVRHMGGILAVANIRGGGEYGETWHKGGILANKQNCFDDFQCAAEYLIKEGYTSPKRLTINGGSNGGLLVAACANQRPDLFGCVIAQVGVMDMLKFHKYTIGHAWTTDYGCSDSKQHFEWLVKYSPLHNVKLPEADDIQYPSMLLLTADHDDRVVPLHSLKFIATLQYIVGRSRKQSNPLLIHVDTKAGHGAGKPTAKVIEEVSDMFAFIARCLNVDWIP
UniProt P56817, sequence (whole entry, looked up): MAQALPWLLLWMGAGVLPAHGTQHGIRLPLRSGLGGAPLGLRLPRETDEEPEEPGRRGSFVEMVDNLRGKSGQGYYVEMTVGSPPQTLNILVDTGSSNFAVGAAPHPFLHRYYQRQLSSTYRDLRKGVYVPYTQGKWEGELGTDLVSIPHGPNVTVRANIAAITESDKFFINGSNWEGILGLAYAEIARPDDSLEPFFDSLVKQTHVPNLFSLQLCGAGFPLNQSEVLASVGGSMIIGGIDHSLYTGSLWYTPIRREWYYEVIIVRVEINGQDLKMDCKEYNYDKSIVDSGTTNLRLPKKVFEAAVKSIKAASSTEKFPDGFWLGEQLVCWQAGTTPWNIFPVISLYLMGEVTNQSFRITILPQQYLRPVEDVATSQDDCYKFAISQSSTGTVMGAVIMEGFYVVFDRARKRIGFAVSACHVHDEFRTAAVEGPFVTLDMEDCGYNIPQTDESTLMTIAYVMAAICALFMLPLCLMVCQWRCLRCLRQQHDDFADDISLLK
UniProt P04070, sequence (whole entry, looked up): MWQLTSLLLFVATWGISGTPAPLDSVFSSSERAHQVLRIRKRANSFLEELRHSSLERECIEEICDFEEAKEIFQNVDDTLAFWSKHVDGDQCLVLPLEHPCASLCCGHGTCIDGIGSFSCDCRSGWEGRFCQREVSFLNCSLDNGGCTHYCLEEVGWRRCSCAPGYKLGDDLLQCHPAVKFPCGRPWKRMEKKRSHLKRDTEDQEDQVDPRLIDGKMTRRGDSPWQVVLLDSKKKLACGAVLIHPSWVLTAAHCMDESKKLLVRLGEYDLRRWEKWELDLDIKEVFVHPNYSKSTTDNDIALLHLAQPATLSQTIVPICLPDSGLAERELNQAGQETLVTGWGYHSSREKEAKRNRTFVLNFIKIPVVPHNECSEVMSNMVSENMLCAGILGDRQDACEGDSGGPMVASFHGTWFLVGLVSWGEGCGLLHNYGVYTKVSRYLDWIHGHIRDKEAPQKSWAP

Set 1
SMILES: N=C(N)c1ccc2cc(OC(=O)c3ccc(N=C(N)N)cc3)ccc2c1
Tested at: 10 µM
| target | assay | inhibition [%] |
| --- | --- | --- |
| Prolyl endopeptidase (PREP, Homo sapiens, UniProt P48147) |  | 29 |
| Genome polyprotein, NS3 protease (Hepatitis C virus genotype 1b, UniProt Q9WMX2, R1181K) |  | 41 |
| Beta-secretase 1 (BACE1, Homo sapiens, UniProt P56817) |  | 0 |
| Genome polyprotein (Hepatitis C virus genotype 1b, UniProt Q9WMX2) | protease activity, inhibitor | 46 |
| Genome polyprotein, NS3 protease (Hepatitis C virus genotype 1b, UniProt Q9WMX2, R1181Q) |  | 58 |
| Vitamin K-dependent protein C (PROC, Homo sapiens, UniProt P04070) | enzyme activity, inhibitor | 98 |

Set 2
Target: panel of 300 human kinases
Tested at: 0.5 µM
Direction: higher = more selective
| SMILES | Gini score |
| --- | --- |
| O=C1Nc2ccc3ncsc3c2/C1=C/c1cnc[nH]1 | 0.44 |
| COc1ccc2c(c1)/C(=C/c1cnc[nH]1)C(=O)N2 | 0.64 |
| CO[C@@H]1[C@H](N(C)C(=O)c2ccccc2)C[C@H]2O[C@]1(C)n1c3ccccc3c3c4c(c5c6ccccc6n2c5c31)C(=O)NC4 | 0.52 |
| CCn1cnc2c(Nc3cccc(Cl)c3)nc(N[C@H]3CCCC[C@H]3N)nc21 | 0.63 |
| COC(=O)[C@]1(O)C[C@@H]2O[C@@]1(C)n1c3ccccc3c3c4c(c5c6ccccc6n2c5c31)C(=O)NC4 | 0.29 |

Mixed results
| Compound | target or system | assay | system | setting | measurement | result |
| --- | --- | --- | --- | --- | --- | --- |
| CN(C)C(=O)Cn1cc(-c2nc([C@@](C)(c3ccc(-c4cnc(N)nc4)cc3)C3CC3)no2)cn1 | Serine/threonine-protein kinase PknB (pknB, Mycobacterium tuberculosis, UniProt P9WI81) | cell-free assay, competition with immobilised ligand |  | 1 µM | remaining binding | 100% |
| CC(=O)N[C@@H](Cc1c[nH]c2ccccc12)C(=O)N[C@@H](CCC(=O)C=[N+]=[N-])C(=O)OC(C)C |  |  | C57BL/6 CES1-/- mouse, blood | intravenous, 1 mg/kg equivalent | haematocrit | 21.9% |
| C[C@H](c1ccnc(Nc2nc3ccc(-c4cc(N(C)C)ncn4)cc3[nH]2)c1)N1CCN(C(=O)CC(F)(F)F)CC1 | Sodium-dependent dopamine transporter (SLC6A3, Homo sapiens, UniProt Q01959) | ligand displacement |  | 10 µM | inhibition | 30.5% |
| Cc1nc(Cc2cccc(C(F)(F)F)c2)sc1-c1ccc(C(N)=O)nc1 | Cyclin-dependent kinase 2 homolog (CRK2, Plasmodium falciparum, UniProt P61075) | cell-free assay, competition with immobilised ligand |  | 1 µM | remaining binding | 100% |
| COCCc1ccc(-c2c(C)nc3c(N4CCOCC4)ccnn23)cn1 | 5-hydroxytryptamine receptor 2C (HTR2C, Homo sapiens, UniProt P28335) | binding, radioligand binding |  | 10 µM | inhibition | 68.2% |

Excerpt of the above (set 2):
| SMILES | Gini score |
| --- | --- |
| COc1ccc2c(c1)/C(=C/c1cnc[nH]1)C(=O)N2 | 0.64 |
